Results gathered from unrelated publications.
Each line is one published result; not all experiments were run side by side.

`O=C(NCc1nc(-c2ccc(Br)cc2)c[nH]1)Nc1ncc(Sc2ccccn2)s1` gave an MIC of 0.125 µM (Streptococcus pyogenes; broth microdilution; ATCC 19615; without verapamil).
With `CC[C@@H](C)[C@@H](NC(=O)[C@@H](C)NC(=O)[C@@H](CCCCN)NC(=O)[C@@H](CC(C)C)NC(=O)[C@@H](CC(C)C)NC(=O)[C@H](NC(=O)[C@@H](CCCCN)NC(=O)[C@@H](CC(C)C)NC(=O)[C@@H](C)NC(=O)[C@@H](CCCCN)NC(=O)[C@@H](CCCCN)NC(=O)[C@@H](CCCCN)NC(=O)[C@@H](C)NC(=O)[C@@H](CCCCN)NC(=O)[C@@H](CO)NC(=O)[C@@H](Cc1ccccc1)NC(=O)[C@H](NC(=O)[C@@H](CCCCN)NC(=O)[C@@H](CC(C)C)NC(=O)[C@@H](Cc1ccccc1)NC(=O)[C@@H](CO)NC(=O)[C@@H](CCCCN)NC(=O)[C@@H](Cc1c[nH]c2ccccc12)NC(=O)[C@@H](CCCCN)NC(C)=O)[C@H](C)O)[C@H](C)O)C(=O)N[C@H](CO)C(=O)N[C@H](CCCCN)C(N)=O` the MIC was 0.7 µM (Acinetobacter baumannii; 964, Mueller-Hinton broth; 24 h, 37 °C).
`O=C1OCC(O)N1/N=C/c1ccc([N+](=O)[O-])o1` (stereo not shown) has an MIC of under 0.0976 µg/mL (Helicobacter pylori; microbial growth, broth dilution; SS1; 48 h).
The MIC of `CC(C)c1ccc(Cn2ccc([C@H](C)[C@](O)(Cn3cnnn3)c3ccc(F)cc3F)n2)cc1` is reported as under 0.008 µg/mL (Pichia kudriavzevii; CLSI broth microdilution; 4946; 24 h).
With `CC(=O)N[C@H](CCCCN)C(=O)N[C@H](CC(C)C)C(=O)N[C@H](CCCCN)C(=O)N[C@H](CO)C(=O)N[C@H](CC(C)C)C(=O)N[C@H](CC(C)C)C(=O)N[C@H](CCCCN)C(=O)N[C@@H](C(=O)N[C@H](CC(C)C)C(=O)N[C@H](CO)C(=O)N[C@H](CCCCN)C(=O)N[C@H](C)C(=O)N[C@H](CCCCN)C(=O)N[C@H](CCCCN)C(=O)N[C@H](CCCCN)C(=O)N[C@H](CC(C)C)C(=O)N[C@H](CC(C)C)C(=O)N[C@H](CCCCN)C(=O)N[C@@H](C(=O)N[C@H](C)C(=O)N[C@H](CC(C)C)C(=O)N[C@H](CCCCN)C(=O)N[C@H](C)C(=O)N[C@H](CC(C)C)C(=O)N[C@H](CO)C(=O)N[C@H](CCCCN)C(N)=O)[C@H](C)O)[C@H](C)O` the MIC was 0.7 µM (Acinetobacter baumannii; broth microdilution; ATCC 19606; 24 h, 37 °C).
`CN(C)c1cc(CNC2CCCCC2)c(O)c2c1C[C@H]1C[C@H]3[C@H](N(C)C)C(O)=C(C(N)=O)C(=O)[C@@]3(O)C(O)=C1C2=O` gave an MIC of 1 µg/mL (Enterococcus faecium; 494, Tet M and Tet L).
For `COC1C=COC2(C)Oc3c(C)c(O)c4c(c3C2=O)C2=NC3(CCN(CC(C)C)CC3)NC2=C(NC(=O)C(C)=CC=CC(C)C(O)C(C)C(O)C(C)C(OC(=O)c2cncnc2)C1C)C4=O` (stereo not shown), the MIC was 0.029 µM (Mycobacteroides abscessus; microbial growth; ATCC19977).
The MIC of `CC(=O)N[C@H](CCCCN)C(=O)N[C@H](CC(C)C)C(=O)N[C@H](CCCCN)C(=O)N[C@H](CO)C(=O)N[C@H](CC(C)C)C(=O)N[C@H](CC(C)C)C(=O)N[C@H](CCCCN)C(=O)N[C@@H](C(=O)N[C@H](CC(C)C)C(=O)N[C@H](CO)C(=O)N[C@H](CCCCN)C(=O)N[C@H](C)C(=O)N[C@H](CCCCN)C(=O)N[C@H](CCCCN)C(=O)N[C@H](CCCCN)C(=O)N[C@H](CCCCN)C(=O)N[C@H](CC(C)C)C(=O)N[C@H](CCCCN)C(=O)N[C@@H](C(=O)N[C@H](CC(C)C)C(=O)N[C@H](CC(C)C)C(=O)N[C@H](CCCCN)C(=O)N[C@H](C)C(=O)N[C@H](CC(C)C)C(=O)N[C@H](CO)C(=O)N[C@H](CCCCN)C(N)=O)[C@H](C)O)[C@H](C)O` is reported as 0.3 µM (Acinetobacter baumannii; 884, Mueller-Hinton broth; 24 h, 37 °C).
For `N#Cc1ccc(-c2c[nH]c(CNC(=O)Nc3ncc(Sc4ccccn4)s3)n2)cc1`, the MIC was 0.125 µM (Streptococcus pyogenes; broth microdilution; ATCC 19615; added: verapamil 50 µg/mL).
The MIC of `CC(=O)[O-].CC(=O)[O-].CN(C)C(=N)NC(=N)N.CN(C)C(=N)NC(=N)N.O.O.[Cu+2]` is reported as 128 µg/mL (Salmonella enteritidis; broth microdilution).
With `CC[C@@H](C)[C@@H](NC(=O)[C@@H](C)NC(=O)[C@@H](CCCCN)NC(=O)[C@@H](CC(C)C)NC(=O)[C@@H](CC(C)C)NC(=O)[C@H](NC(=O)[C@@H](CCCCN)NC(=O)[C@@H](CC(C)C)NC(=O)[C@@H](CCCCN)NC(=O)[C@@H](CCCCN)NC(=O)[C@@H](CCCCN)NC(=O)[C@@H](CCCCN)NC(=O)[C@@H](C)NC(=O)[C@@H](CCCCN)NC(=O)[C@@H](CO)NC(=O)[C@@H](Cc1ccccc1)NC(=O)[C@H](NC(=O)[C@@H](CCCCN)NC(=O)[C@@H](CC(C)C)NC(=O)[C@@H](Cc1ccccc1)NC(=O)[C@@H](CO)NC(=O)[C@@H](CCCCN)NC(=O)[C@@H](Cc1c[nH]c2ccccc12)NC(=O)[C@@H](CCCCN)NC(C)=O)[C@H](C)O)[C@H](C)O)C(=O)N[C@H](CO)C(=O)N[C@H](CCCCN)C(N)=O` the MIC was 0.6 µM (Acinetobacter baumannii; 899, Mueller-Hinton broth; 24 h, 37 °C).
`CO[C@H]1/C=C/O[C@@]2(C)Oc3c(C)c(O)c4c(c3C2=O)C2=NC3(CCN(CC(C)C)CC3)NC2=C(NC(=O)/C(C)=C\C=C\[C@H](C)[C@H](O)[C@@H](C)[C@@H](O)[C@@H](C)[C@H](OC(=O)c2ccccc2F)[C@@H]1C)C4=O` has an MIC of 0.06 µM (Mycobacteroides abscessus; ATCC 19977 wild type; 90% growth inhibition).
With `CCCCCCCCCCCCCCCCCCCCCCSCC1OC(OC2C(N)CC(N)C(OC3OC(CN)C(O)CC3N)C2O)C(O)C(N)C1O` (stereo not shown) the MIC was over 150 µg/mL (Streptococcus mutans; UA159).
For `CC(C)=CCc1c(O)ccc2c1O[C@H]1c3cc4c(cc3OC[C@@H]21)OC(C)(C)C=C4`, MIC read “inactive” (Streptococcus pyogenes; ATCC 19615).
For `CO[C@H]1/C=C/O[C@@]2(C)Oc3c(C)c(O)c4c(c3C2=O)C2=NC3(CCN(CC(C)C)CC3)NC2=C(NC(=O)/C(C)=C\C=C\[C@H](C)[C@H](O)[C@@H](C)[C@@H](O)[C@@H](C)[C@H](OC(=O)c2cccnc2)[C@@H]1C)C4=O`, the MIC was 0.024 µM (Mycobacteroides abscessus; ATCC 19977 wild type; 90% growth inhibition).
`CC1CCN(Cc2cc(N(C)C)c3c(c2O)C(=O)C2=C(O)[C@]4(O)C(=O)C(C(N)=O)=C(O)[C@@H](N(C)C)[C@@H]4C[C@@H]2C3)CC1` has an MIC of 0.25 µg/mL (Enterococcus faecium; 494, Tet M and Tet L).
For `CN[C@@H]1[C@H](O)[C@H](NC)[C@H]2O[C@]3(O)[C@H](O[C@@H]2[C@H]1O)O[C@H](C)C[C@@]3(O)CNCCc1nccs1`, the MIC was 4 µg/mL (Mycobacteroides abscessus; microbial growth; ATCC19977; 5 days).
The MIC of `CN(C)c1cc(CNCc2ccccc2)c(O)c2c1C[C@H]1C[C@H]3[C@H](N(C)C)C(O)=C(C(N)=O)C(=O)[C@@]3(O)C(O)=C1C2=O` is reported as 1 µg/mL (Enterococcus faecium; 494, Tet M and Tet L).
The MIC of `CO[C@H]1/C=C/O[C@@]2(C)Oc3c(C)c(O)c4c(c3C2=O)C2=NC3(CCN(CC(C)C)CC3)NC2=C(NC(=O)/C(C)=C\C=C\[C@H](C)[C@H](O)[C@@H](C)[C@@H](O)[C@@H](C)[C@H](OC(=O)c2ccccc2Cl)[C@@H]1C)C4=O` is reported as 0.043 µM (Mycobacteroides abscessus; ATCC 19977 wild type; 90% growth inhibition).
For `CC(C)C[C@H](NC(=O)[C@H](CC(N)=O)NC(=O)[C@H](CCCNC(=N)N)NC(=O)[C@@H](CC(C)C)NC(=O)[C@H](Cc1ccccc1)NC(=O)[C@H](CC(=O)O)NC(=O)[C@H](CCCCN)NC(=O)[C@@H](CC(C)C)NC(=O)[C@H](CCCNC(=N)N)NC(=O)[C@H](CCC(N)=O)NC(=O)[C@@H](NC(=O)[C@@H](CC(C)C)NC(=O)[C@H](CCCNC(=N)N)NC(=O)[C@H](CCCCN)NC(=O)[C@H](Cc1ccccc1)NC(=O)CN)C(C)C)C(=O)N[C@H](C(N)=O)C(C)C`, the MIC was at least 100 µM (Staphylococcus aureus, Enterococcus faecium, Klebsiella pneumoniae, Pseudomonas aeruginosa; no inhibition up to value).
For `COc1ccccc1C(=O)O[C@H]1[C@H](C)[C@H](O)[C@H](C)[C@@H](O)[C@@H](C)/C=C/C=C(/C)C(=O)NC2=C3NC4(CCN(CC(C)C)CC4)N=C3c3c(c(O)c(C)c4c3C(=O)[C@@](C)(O/C=C/[C@H](OC)[C@H]1C)O4)C2=O`, the MIC was 0.03 µM (Mycobacteroides abscessus; ATCC 19977 wild type; 90% growth inhibition).
`COc1ccc2c3c(oc2c1CC=C(C)C)-c1cc(CC=C(C)C)c(O)cc1OC3` — result for MIC: “inactive” (Streptococcus pyogenes; ATCC 19615).
`CCCCCCSCC1OC(OC2C(N)CC(N)C(OC3OC(CN)C(O)CC3N)C2O)C(O)C(N)C1O` (stereo not shown) has an MIC of over 150 µg/mL (Streptococcus mutans; UA159).
For `CN[C@@H]1[C@H](O)[C@H](NC)[C@H]2O[C@]3(O)[C@H](O[C@@H]2[C@H]1O)O[C@H](C)C[C@@]3(O)CNCCc1cccs1`, the MIC was 4 µg/mL (Mycobacteroides abscessus; microbial growth; ATCC19977; 5 days).
`COc1ccc2c(oc3c4ccc(O)cc4oc(=O)c23)c1CC=C(C)C` — result for MIC: “inactive” (Streptococcus pyogenes; ATCC 19615).
